# Measured values pooled from the literature.
# Each line is one published result; not all experiments were run side by side.
# Organism: Escherichia coli
Compound,test,test system,conditions,how to read,MIC
O=C(O)c1cccc(C(=O)O)n1,,NDM-1 producing,compound alone,,> 2000 µM
CC[C@H](C)[C@H](NC(=O)[C@H](CC(C)C)NC(=O)[C@H](CCCNC(=N)N)NC(=O)[C@H](Cc1c[nH]c2ccccc12)NC(=O)[C@H](CCCNC(=N)N)NC(=O)[C@H](CCCCN)NC(=O)[C@H](CCCNC(=N)N)NC(=O)[C@H](Cc1c[nH]c2ccccc12)NC(=O)[C@H](Cc1c[nH]cn1)NC(=O)[C@@H](NC(=O)CNC(=O)CNC(=O)[C@H](CCSC)NC(=O)[C@H](C)NC(=O)[C@@H](N)CC(C)C)C(C)C)C(=O)N[C@@H](C)C(=O)N[C@@H](CC(N)=O)C(=O)N[C@@H](CCSC)C(=O)N[C@@H](CCCNC(=N)N)C(=O)N[C@H](C(=O)N[C@@H](Cc1c[nH]c2ccccc12)C(=O)N[C@@H](Cc1c[nH]cn1)C(=O)N[C@@H](CCCNC(=N)N)C(=O)N1CCC[C@H]1C(=O)N[C@@H](CC(N)=O)C(=O)N[C@@H](Cc1ccccc1)C(=O)N[C@@H](CCCNC(=N)N)C(=O)N[C@@H](CC(=O)O)C(=O)N[C@@H](Cc1c[nH]cn1)C(=O)O)[C@@H](C)CC,broth microdilution,"K88, Mueller-Hinton broth",37 °C,,2.37 µM
CC[C@H](C)[C@H](NC(=O)CN)C(=O)N[C@@H](C)C(=O)N[C@@H](CCCCN)C(=O)N[C@@H](C)C(=O)N[C@H](C(=O)N[C@@H](CCCCN)C(=O)N[C@@H](CCCCN)C(=O)N[C@H](C(=O)N[C@@H](C)C(=O)N[C@@H](CCCCN)C(=O)N[C@@H](C)C(=O)N[C@@H](CC(C)C)C(=O)NCC(N)=O)[C@@H](C)CC)[C@@H](C)CC,,"ATCC 25922, Mueller-Hinton broth","12 h, 37 °C",,2 µg/mL
CC(C)Oc1c(NC(=O)c2ccc(NC(=O)[C@H](CC(N)=O)NC(=O)c3ccc(NC(=O)c4ccc(C#N)c(Cl)c4)cc3)cc2)ccc(C(=O)Nc2ccc(C(=O)O)cc2)c1O,,K12 ΔtolC,,,< 0.03 µg/mL
CC[C@H](C)[C@H](NC(=O)CNC(=O)[C@H](CC(=O)O)NC(=O)[C@H](CCCNC(=N)N)NC(=O)[C@@H](NC(=O)[C@H](CC(N)=O)NC(=O)[C@H](C)NC(=O)CNC(=O)[C@@H](NC(=O)[C@H](CCCCN)NC(=O)[C@H](CCC(=O)O)NC(=O)[C@@H](NC(=O)[C@H](CCCCN)NC(=O)[C@H](CCCCN)NC(=O)[C@H](Cc1ccccc1)NC(=O)[C@@H](NC(=O)[C@H](CCCCN)NC(=O)[C@H](Cc1c[nH]c2ccccc12)NC(=O)[C@@H](N)CCCNC(=N)N)[C@@H](C)CC)[C@@H](C)CC)C(C)C)C(C)C)C(=O)N[C@H](C(=O)N[C@@H](CCCCN)C(=O)N[C@@H](C)C(=O)NCC(=O)N1CCC[C@H]1C(=O)N[C@@H](C)C(=O)N[C@H](C(=O)N[C@@H](C)C(=O)N[C@H](C(=O)N[C@H](C(=O)NCC(=O)N[C@@H](CCC(N)=O)C(=O)N[C@@H](C)C(=O)N[C@@H](C)C(=O)N[C@H](C(=O)N[C@H](C(=O)N[C@H](C(=O)N[C@@H](CCCCN)C(N)=O)C(C)C)C(C)C)[C@@H](C)O)C(C)C)C(C)C)C(C)C)[C@@H](C)CC,,"KCTC 1682, Mueller-Hinton broth","16 h, 37 °C",growth inhibition over 99%,2 µM
CC[C@H](C)[C@H](NC(=O)[C@H](CC(C)C)NC(=O)[C@H](CCCCN)NC(=O)[C@@H](NC(=O)[C@H](C)NC(=O)[C@H](CCC(=O)O)NC(=O)[C@H](Cc1c[nH]cn1)NC(=O)[C@@H](NC(=O)[C@H](CCCCN)NC(=O)[C@H](CCC(N)=O)NC(=O)[C@H](Cc1ccccc1)NC(=O)[C@@H](NC(=O)[C@H](CCCCN)NC(=O)[C@@H](N)CCCCN)C(C)C)[C@@H](C)CC)[C@@H](C)CC)C(N)=O,CLSI broth microdilution,ATCC 25922,"18 h, 37 °C",,16 µM
CCCCCCC/C=C/C(=O)N1C(=O)/C(=C(\O)c2ccc(O)cc2)C(=O)C1CC(C)C (centres unmarked),,K12 ΔtolC,,,25 µg/mL
CC(=O)OCC1=C(C(=O)O)N2C(=O)[C@@H](NC(=O)Cc3cccs3)[C@H]2SC1,,BL21(DE3) wild type,,,31.2 µg/mL
COc1c(N2C[C@@H]3CCCN[C@@H]3C2)c(F)cc2c(=O)c(C(=O)O)cn(C3CC3)c12,,"NR 48983, fluoroquinolone-resistant",,,73 µM
O=[N+]([O-])[O-].O=[N+]([O-])[O-].O=[N+]([O-])[O-].[Ga+3],broth dilution,DH5α,"22 to 24 h, 37 °C",,128 µg/mL
CC[C@H](C)[C@H](NC(=O)[C@H](CCCCN)NC(=O)[C@H](CCCCN)NC(=O)CNC(=O)[C@H](CCCCN)NC(=O)[C@H](CC(C)C)NC(=O)[C@H](CCCCN)NC(=O)[C@H](CCCNC(=N)N)NC(=O)[C@@H](NC(=O)[C@H](CC(C)C)NC(=O)[C@H](CCCNC(=N)N)NC(=O)[C@@H](N)CCCNC(=N)N)[C@@H](C)CC)C(=O)N[C@@H](Cc1ccc(O)cc1)C(=O)N[C@@H](CC(C)C)C(=O)N[C@@H](Cc1ccc(O)cc1)C(=O)N[C@@H](Cc1ccccc1)C(=O)N[C@@H](CCCCN)C(=O)N[C@@H](CC(C)C)C(=O)N[C@@H](CCC(N)=O)C(=O)N[C@@H](CC(C)C)C(=O)N[C@@H](CC(C)C)C(=O)N[C@@H](CCCCN)C(=O)N[C@@H](CCCCN)C(N)=O,broth microdilution,"KCTC 1682, Mueller-Hinton broth","24 h, 37 °C",,8 µM
CC[C@H](C)[C@H](N)C(=O)N[C@@H](CC(C)C)C(=O)NCC(=O)N[C@@H](CCC(=O)O)C(=O)N[C@H](C(=O)N[C@@H](Cc1c[nH]c2ccccc12)C(=O)N[C@@H](CCCCN)C(=O)NCC(=O)N[C@H](C(=O)N[C@@H](CCCCN)C(=O)N[C@@H](CC(=O)O)C(=O)N[C@H](C(=O)N[C@@H](CC(C)C)C(N)=O)[C@@H](C)CC)[C@@H](C)CC)[C@@H](C)CC,broth microdilution,ATCC 25922,with: human serum 10%,,> 100 µM
CC[C@H](C)[C@H](NC(=O)[C@H](Cc1ccc(O)cc1)NC(=O)[C@@H](NC(=O)[C@@H]1CCCN1C(=O)[C@H](CCCNC(=N)N)NC(=O)[C@H](CC(N)=O)NC(=O)[C@H](CC(N)=O)NC(=O)CN)C(C)C)C(=O)N1CCC[C@H]1C(=O)N[C@@H](CCC(N)=O)C(=O)N1CCC[C@H]1C(=O)N[C@@H](CCCNC(=N)N)C(=O)N1CCC[C@H]1C(=O)N1CCC[C@H]1C(=O)N[C@@H](Cc1c[nH]cn1)C(=O)N1CCC[C@H]1C(=O)N[C@@H](CCCNC(=N)N)C(=O)N[C@@H](CC(C)C)C(=O)O,broth dilution,K12 BW25113,,,9.4 µM
CC1(C)S[C@@H]2[C@H](NC(=O)C(C(=O)O)c3ccccc3)C(=O)N2[C@H]1C(=O)O (some centres unmarked),broth microdilution,Keio mutant JW2142-1,,,12.5 µg/mL
CCCCCC(=O)N[C@@H](CCCNC(=N)N)C(=O)N[C@@H](CCCNC(=N)N)C(=O)N[C@@H](CCCNC(=N)N)C(=O)N[C@@H](CCCNC(=N)N)C(=O)N[C@H](C(=O)N[C@@H](CC(C)C)C(=O)N[C@H](C(=O)N[C@@H](CCCNC(=N)N)C(=O)N[C@@H](CCCNC(=N)N)C(=O)N[C@H](C(=O)N[C@@H](CC(C)C)C(=O)N[C@@H](CCCNC(=N)N)C(=O)N[C@@H](CC(C)C)C(=O)N[C@@H](CCCNC(=N)N)C(=O)N[C@@H](CO)C(=O)N[C@@H](CO)C(=O)N[C@@H](C)C(=O)N[C@@H](Cc1ccc(O)cc1)C(N)=O)C(C)C)[C@@H](C)CC)[C@@H](C)CC,broth microdilution,ATCC 25922,highest value reported,,16 µM
CC[C@@H](C)[C@@H](N)C(=O)N[C@@H](C(=O)N[C@H](Cc1ccc(O)cc1)C(=O)N[C@@H](C(=O)N[C@H](CCN)C(=O)N[C@H](CC(C)C)C(=O)N[C@H](CO)C(=O)N[C@H](CCN)C(=O)N[C@@H](C(=O)N[C@H](CCN)C(=O)N[C@H](Cc1c[nH]cn1)C(=O)N[C@H](CCN)C(=O)N[C@H](C)C(=O)N[C@H](CCN)C(=O)N[C@H](CCN)C(N)=O)[C@H](C)CC)[C@H](C)CC)[C@H](C)CC,,"W3110, colistin-sensitive, Mueller-Hinton broth",,,2 µg/mL
CC1(C)SC2C(NC(=O)C(NC(=O)C3=C(O)C(c4ccccc4)NC3=O)c3ccccc3)C(=O)N2C1C(=O)O (centres unmarked),broth microdilution,Keio mutant JW5086-3,"18 h, ferrienterobactin permease gene",,25 µg/mL
CN(C)c1cc(NC(=O)CNC(C)(C)C)c(O)c2c1C[C@H]1C[C@H]3[C@H](N(C)C)C(O)=C(C(N)=O)C(=O)[C@@]3(O)C(O)=C1C2=O,,DH5a clone with KPC-100,,,0.125 µg/mL
CC[C@H](C)[C@H](NC(=O)CNC(=O)[C@H](CC(=O)O)NC(=O)[C@H](CCC(=O)O)NC(=O)[C@@H](NC(=O)[C@H](CC(N)=O)NC(=O)[C@H](CCCNC(=N)N)NC(=O)CNC(=O)[C@@H](NC(=O)[C@H](CCCCN)NC(=O)[C@H](CCC(=O)O)NC(=O)[C@@H](NC(=O)[C@H](CCCCN)NC(=O)[C@H](CCCCN)NC(=O)[C@H](Cc1ccccc1)NC(=O)[C@@H](NC(=O)[C@H](CCCCN)NC(=O)[C@H](Cc1c[nH]c2ccccc12)NC(=O)[C@@H](N)CCCNC(=N)N)[C@@H](C)CC)[C@@H](C)CC)C(C)C)C(C)C)C(=O)N[C@H](C(=O)N[C@@H](CCCCN)C(=O)N[C@@H](C)C(=O)NCC(=O)N1CCC[C@H]1C(=O)N[C@@H](C)C(=O)N[C@H](C(=O)N[C@@H](C)C(=O)N[C@H](C(=O)N[C@H](C(=O)NCC(=O)N[C@@H](CCC(N)=O)C(=O)N[C@@H](C)C(=O)N[C@@H](C)C(=O)N[C@H](C(=O)N[C@H](C(=O)N[C@H](C(=O)N[C@@H](CCCCN)C(N)=O)C(C)C)C(C)C)[C@@H](C)O)C(C)C)C(C)C)C(C)C)[C@@H](C)CC,,"K1 ATCC 700973, Mueller-Hinton broth","16 h, 37 °C",growth inhibition over 99%,8 µM
CC[C@H](C)CCCCC(=O)N[C@@H](CCN)C(=O)N[C@H](C(=O)N[C@@H](CCN)C(=O)N[C@H]1CCNC(=O)[C@H]([C@@H](C)O)NC(=O)[C@H](CCN)NC(=O)[C@H](CCN)NC(=O)[C@H](CC(C)C)NC(=O)[C@@H](Cc2ccccc2)NC(=O)[C@H](CCN)NC1=O)[C@@H](C)O,broth microdilution,ATCC 15597,"24 h, 37 °C",,2 µg/mL

# Excerpt of the above:
Compound,test,test system,conditions,how to read,MIC
CC1(C)S[C@@H]2[C@H](NC(=O)C(C(=O)O)c3ccccc3)C(=O)N2[C@H]1C(=O)O (some centres unmarked),broth microdilution,Keio mutant JW2142-1,,,12.5 µg/mL
